Published values from different studies.
Parts stem from different laboratories: compare values within a part only.

Series 1
Target: Ras GTPase-activating protein-binding protein 1, C-terminal RGG region (G3BP1, Homo sapiens, UniProt Q13283)
Sequence of UniProt Q13283 (whole entry, looked up): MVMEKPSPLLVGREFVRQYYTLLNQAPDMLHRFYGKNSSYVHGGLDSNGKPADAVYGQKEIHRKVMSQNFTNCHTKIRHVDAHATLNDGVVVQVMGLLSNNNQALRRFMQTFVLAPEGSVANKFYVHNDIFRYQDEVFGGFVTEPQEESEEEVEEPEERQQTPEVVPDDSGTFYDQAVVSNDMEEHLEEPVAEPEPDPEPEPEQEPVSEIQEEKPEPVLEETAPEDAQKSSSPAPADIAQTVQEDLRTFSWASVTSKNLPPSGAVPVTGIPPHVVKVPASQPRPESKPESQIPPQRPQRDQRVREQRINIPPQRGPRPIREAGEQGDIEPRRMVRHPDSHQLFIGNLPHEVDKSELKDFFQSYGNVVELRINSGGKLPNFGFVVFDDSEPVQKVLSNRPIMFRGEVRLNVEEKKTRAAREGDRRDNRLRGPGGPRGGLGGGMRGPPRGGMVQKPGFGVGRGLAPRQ
Technique: RNA Bind-n-Seq
Form: RNA
Medium: in vitro
Concentration: 1 µM
Notes: whole 134-nt RNA, ends assumed
Added: 150 mM KCl
Relative to: input library
Reading: higher = stronger binding
Constant ends, left off below: GGGAGUUCUACAGUCCGACGAUC … UGGAAUUCUCGGGUGUCAAGG
Strand	log2 enrichment
UCCUCAAGUCCUGUGCUACACAUCGUAUGUACCGAAUCGGCGGCGGGCGGGAAAGUAUUAUGUUACGCCGUUCGGAUCUGCACUUCCAGC	-0.72
UCCUGUGCUACACAUCGUAUGUACCGAAUCGGGGAAAAAGGGGUUUUUGGGGAAAGGGGAAAGUAUUAUGUUACGCCGUUCGGAUCUGCA	1.63
UGAAAAUUCUCGACUGGCUGCUGAGGUUUACAAAGACAUGCCGGAAACCAGCUUUACUCGAACCAUUUCUAAUCCUGAGGUGGUUAUGAA	-1.94
CCUCAAGUCCUGUGCUACACAUCGUAUGUACCGAAUCGGAAAAAGGAGGUGGAAAGUAUUAUGUUACGCCGUUCGGAUCUGCACUUCCAG	-0.681
UCCUGUGCUACACAUCGUAUGUACCGAAUCGGAAAAAAAGGAAAAAAAGGAAAAAAAGGGAAAGUAUUAUGUUACGCCGUUCGGAUCUGC	-1.1
UAGGUAAGAAAGUACUCAUUGUCUAUGCACACCAGGAACCCAAGUCUUUCAACGGAUCCUUGAAGAAUGUGGCUGUAGAUGAACUGAGCA	-0.731
CUCAAGUCCUGUGCUACACAUCGUAUGUACCGAAUCGGGGCCGGGCCGGGCCGGAAAGUAUUAUGUUACGCCGUUCGGAUCUGCACUUCC	-1.62
ACCAUGCAGGUGGGCAUCUUUGGGAAGUGGGGCAAGGGGGGGAUAGGGAGGGGGGUAACACUUUGGGAACAGGUGGUCCAAAGUCGUUUC	-0.97
CAAGUCCUGUGCUACACAUCGUAUGUACCGAAUCGGAAAGGAAAAAAAGGAAAGGAAAGUAUUAUGUUACGCCGUUCGGAUCUGCACUUC	-2
GUCCUGUGCUACACAUCGUAUGUACCGAAUCGGAAAAAAAGGUUUUUGGUUUUUUUGGAAAGUAUUAUGUUACGCCGUUCGGAUCUGCAC	-1.98
AGUCCUGUGCUACACAUCGUAUGUACCGAAUCGGGAAAAAGGGAGGGUUUUUUUGGGAAAGUAUUAUGUUACGCCGUUCGGAUCUGCACU	0.974
CAAGUCCUGUGCUACACAUCGUAUGUACCGAAUCGGGCCCCGGGCCCCGGCCCCGGAAAGUAUUAUGUUACGCCGUUCGGAUCUGCACUU	-1.99
UCCUGUGCUACACAUCGUAUGUACCGAAUCAAACCCCCCCAAAUUUAAAUUUUUUUAAAAAAGUAUUAUGUUACGCCGUUCGGAUCUGCA	-0.415
GUCCUGUGCUACACAUCGUAUGUACCGAAUCGGCCCCCGGGCCCCCGGGGCCCCCGGGAAAGUAUUAUGUUACGCCGUUCGGAUCUGCAC	-1.4

Series 2
Target: Histone acetyltransferase KAT6A, both winged helices, GST fusion (KAT6A, Homo sapiens, UniProt Q92794, residues 1-181)
Technique: protein binding microarray
Form: double-stranded DNA, one strand shown
Medium: in vitro
Concentration: not given
Notes: 8-mer, flanks averaged, mean of 2 arrays, mostly near background
Relative to: not given
Reading: higher = stronger binding
Residues (chain): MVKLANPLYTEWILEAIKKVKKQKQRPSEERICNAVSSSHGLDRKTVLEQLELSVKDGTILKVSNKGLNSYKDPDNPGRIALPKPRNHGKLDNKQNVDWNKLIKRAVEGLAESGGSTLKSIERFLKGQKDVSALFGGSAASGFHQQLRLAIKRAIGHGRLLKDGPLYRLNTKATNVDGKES
Strand	E-score
ATAACTCG	0.004
CACTCTGG	-0.223
AGAGCCCC	-0.161
GTTAACTA	0.188
CATAGTAA	-0.131
GACCCATC	-0.042
GCTCCCAA	-0.22
GGCTTGTA	-0.0821
ACCCGCAG	0.169
ATAGAGTC	0.0607
GAATCGTA	0.00266
TAGAGAGA	-0.216
CTACCCGC	0.247
ATGGGCTC	-0.144
CCTCAGAG	-0.129
ATGGCCCG	0.216
ACTCCGGC	0.155
GGCGAGCC	-0.028
ATAATAAA	0.0885
ACTTATCG	-0.0577
TCGAGACA	-0.135

Series 3
Target: RING finger protein unkempt homolog, zinc fingers 1-6, SBP tag (UNK, Homo sapiens, UniProt Q9C0B0, residues 30-357)
Sequence of UniProt Q9C0B0 (30-357, looked up): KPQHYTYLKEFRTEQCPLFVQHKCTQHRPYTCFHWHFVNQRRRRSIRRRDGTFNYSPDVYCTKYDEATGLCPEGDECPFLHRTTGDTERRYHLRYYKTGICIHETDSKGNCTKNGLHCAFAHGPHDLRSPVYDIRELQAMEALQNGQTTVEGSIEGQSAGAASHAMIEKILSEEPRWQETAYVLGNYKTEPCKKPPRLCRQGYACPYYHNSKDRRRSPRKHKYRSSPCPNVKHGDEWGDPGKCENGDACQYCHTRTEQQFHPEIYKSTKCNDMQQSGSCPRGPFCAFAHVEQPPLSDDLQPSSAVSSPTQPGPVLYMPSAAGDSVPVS
Technique: RNA Bind-n-Seq
Form: RNA
Medium: in vitro
Concentration: 100 nM
Notes: RNA with constant flanks, vertebrate orthologous sites, ends assumed
Relative to: input RNA pool
Reading: higher = stronger binding
Constant ends, left off below: GGGAGUUCUACAGUCCGACGAUC … CAACAGAGGAUUGAGCAUCA
Strand	bound/input enrichment [ratio]
CAGGGUGGGACCCGGGACCCGCGGCUCAGUGACCCGCUAGCCACGUCAGCCAAGCCACUUUAGGUCCAUUUUUUUAUUUUAACAGUGCUCUUCCAUCUUGUGCAUAAGCCUGAGAUUUGG	2.44
AAGCAUUUUGCCACUUGGAUGCGGUCUGCACAGGAAGCUGCUGACCCCUCCACAAUACCACAUUAAUAUGUUUUUUUUUUAAGAUGUUAGGACCUAACUGAAUUUACUAAAAUGUAAUUA	0.318
UGGGUUGUUCCUAUUAUUAUCAAGUAGCUGGAAUUGUGAAGGUUGGAGUAGUUAGAUCUUUAGCUUUUAUUCCUUUUUUUUGUAUUACUAUCCAUGUGUAUAAAUUAUUGAUCAUGUUGC	2.33
CUGAAGCUUUGUGUUUGGCUGCACCUGCAUAAACUGCUACAAAUAGAAUAAAGAAUCUCAUAGCCUGUAUCUAUCAUUUAGAUGCAUGGAAAAACGGGCUUUGCACACAGUGGGUUUGGA	1.43
UACAGGAGCAGCUGGCCAACAGUGCUCAGCACUCUCUACAGGGUUAUCUGCAUGAUGAGAGUGACGUUUCAUAUCAACAGGACCUGUCCCCGCACACACCCGUACCCUGCAGUCCGGUGG	0.445
UCAUGUAGUUUUGUAUUUUCAAGCAAAAAUCUUACUGUACUUGAAUGUCUUUUUUUUGGUUAGCACACCUUAGACUUGCUGUAAUUGUACUCAUGUCCCAGUAUCUAAAGUUCUUUCUGU	0.679
AAGAACAGGAGCAGCAUAGACUGAGCUUUGGGGAAAUGAGCUUUGCUUUUUGUAUUUAAAUAGGAUACUUUUAUAUGAUGGGUGCUUUGAGUGUGAAUGCAGCAGGCUCUCCAUUUCAGA	1.1
AAGCCAUUUUUUCCACAUUUUCUGUAAAUAAUGGAUAAUCAUUUUUAAAAAAUUUAUUUUUAGUGCUGUUUUAACAAUGUGGAUAGAUCAUAAAUGUACUUGCUGAAUUCAAUCAUUUUU	0.147
UGGGUUACUCCUAUUAUUAUCAAGUAGCUGGAAUUGUGAAGUUCGGAGUAGUUAGAUCUUUAGCUUUUAUUCCUUAUUUUUUUGUAUUACUCUCCAUGUGUAUAAAUUAUUGAUCAUGUU	4.41
GAUAAUCACUCUAAUUGUAACCUGAAGAAAGUGUAACAUUGUGUAGCCUUUUGUAUAAAAUAGACAAAUAGAAAUGGUCCAAUUAGUUUCCUUUUUAAUAUGCUGAAAAUAAGCAGGUGG	1.94
UAAUGCAAUGGUUGAAGGCUCUGAGCUCAGAAAGUUUCGGUCCAACUCUAGAGUUUAUCACCGGUACUUUCUUUUAGAUGCAGAUAUGCAGUCCCUGCGUUGGGAACCUUCAAAGAAGGA	0.363

Series 4
Target: Sal-like protein 4, full length isoform A (SALL4, Homo sapiens, UniProt Q9UJQ4, residues 1-1053)
Sequence of UniProt Q9UJQ4 (whole entry, looked up): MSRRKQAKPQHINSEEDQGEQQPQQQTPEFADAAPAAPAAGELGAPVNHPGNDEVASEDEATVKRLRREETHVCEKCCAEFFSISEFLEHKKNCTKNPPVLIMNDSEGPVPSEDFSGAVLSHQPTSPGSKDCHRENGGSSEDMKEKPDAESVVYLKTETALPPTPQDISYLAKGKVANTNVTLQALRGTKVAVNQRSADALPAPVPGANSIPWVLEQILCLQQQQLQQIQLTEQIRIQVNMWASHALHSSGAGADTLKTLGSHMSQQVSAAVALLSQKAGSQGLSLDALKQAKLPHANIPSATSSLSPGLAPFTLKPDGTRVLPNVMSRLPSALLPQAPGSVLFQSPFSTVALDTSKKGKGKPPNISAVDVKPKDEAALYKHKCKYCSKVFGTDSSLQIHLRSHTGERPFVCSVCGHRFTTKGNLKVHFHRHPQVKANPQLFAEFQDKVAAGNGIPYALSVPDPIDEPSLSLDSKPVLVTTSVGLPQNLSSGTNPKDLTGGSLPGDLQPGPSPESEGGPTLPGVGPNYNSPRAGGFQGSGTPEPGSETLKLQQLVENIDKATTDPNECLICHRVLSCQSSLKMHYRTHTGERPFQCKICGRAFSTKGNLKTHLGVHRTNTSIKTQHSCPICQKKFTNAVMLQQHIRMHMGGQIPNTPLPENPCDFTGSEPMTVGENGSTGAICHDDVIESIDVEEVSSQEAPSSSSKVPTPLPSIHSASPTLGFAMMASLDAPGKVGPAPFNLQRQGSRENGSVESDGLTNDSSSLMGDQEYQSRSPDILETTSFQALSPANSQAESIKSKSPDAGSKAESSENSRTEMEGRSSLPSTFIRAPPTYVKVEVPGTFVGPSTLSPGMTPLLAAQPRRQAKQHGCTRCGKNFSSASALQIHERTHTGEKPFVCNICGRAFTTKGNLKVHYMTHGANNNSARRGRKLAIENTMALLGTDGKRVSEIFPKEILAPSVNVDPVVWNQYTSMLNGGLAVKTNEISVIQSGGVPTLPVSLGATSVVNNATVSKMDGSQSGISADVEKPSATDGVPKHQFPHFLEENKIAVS
Technique: universal PBM
Form: double-stranded DNA, one strand shown
Medium: in vitro
Concentration: 600 nM
Notes: 8-mer, flanks averaged, mean of replicates
Reading: higher = stronger binding
Strand	E-score
CAGGGCGA	-0.27
GTCACTAA	0.153
AAGCCCTC	-0.222
CATGGTGA	-0.0303
AGCGGACG	-0.286
ACTTCCGA	-0.0418
CCTACCAA	0.00734
AGGCGTAC	-0.153
CGAAACCG	-0.27
GAGTCGGC	-0.183
ACATTGCT	0.222
CGTACCCA	-0.134
ATACTATC	0.254
AGGGCTCA	-0.191
GATGCGTA	0.0758
CCCAGATC	-0.296
AACTCCGA	-0.0805
CGATCCAG	-0.25
ATGCCCTG	-0.143
GTCCTGGA	-0.246
GACGCAAA	-0.19
ACCAATAC	0.168
CGCTCAGC	-0.174
CAGGCAGC	-0.238
GGGCGCAC	-0.313

Series 5
Target: Centromere-binding protein 1, full length, His-tagged (CBF1, Saccharomyces cerevisiae, UniProt P17106, residues 1-351)
Sequence of UniProt P17106 (whole entry, looked up): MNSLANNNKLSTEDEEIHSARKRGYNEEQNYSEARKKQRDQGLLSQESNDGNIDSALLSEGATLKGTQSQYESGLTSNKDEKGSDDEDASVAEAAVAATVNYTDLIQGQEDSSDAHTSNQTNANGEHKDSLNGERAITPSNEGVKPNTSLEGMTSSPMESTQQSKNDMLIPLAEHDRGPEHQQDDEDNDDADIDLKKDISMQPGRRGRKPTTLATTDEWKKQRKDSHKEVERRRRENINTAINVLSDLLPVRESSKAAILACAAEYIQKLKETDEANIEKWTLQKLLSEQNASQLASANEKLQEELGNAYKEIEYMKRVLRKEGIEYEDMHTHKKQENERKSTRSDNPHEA
Technique: competition protein-binding microarray
Form: double-stranded DNA, one strand shown
Medium: in vitro
Concentration: 2 µM
Notes: whole 60-bp probe, lowest competitor level
Added: Pho4 competitor, 0.05 µM
Reading: higher = stronger binding
Constant ends, left off below: … GTCTTGATTCGCTTGACGCTGCTG
Strand	fluorescence intensity [a.u.]
AAGGGACGGATTCAAGCCGTGTCTGTGAGCATCCAT	65
CAATACTCTTTGTCCCACGATGCAACTTTGAAAGGT	71.6
CATACCCAACCTTGGGGAGTGGGTGAAGATATTTGT	59.7
TGTTACACATCGACATACGTGCTTTCATAGAAAGAG	84.4
ATGTAGTAACTTTTTGATGTGACGGTCGTTAATACC	88.2
CGTCCTAGTGATTGTCACGTGGGTGCCATGAGGAAG	4200
TAAGATTCGCTCAAACACATGCTCTTTCCAACGCTG	106
CGTCCTAGTGATTGCGCTGTGGGTGCCATGAGGAAG	64
CTTTCCCGATCTTGTCACCAAACTTTAGCACATTTG	74.5
CTAACGAAGGTTTGACTCGTGGGTGACAAGCCAAGT	81.5
GTCTTGTCTCATTGGCAAGTGGGTGTCCCCACTTCA	60.7
GGCAAGGGTCCGTTTCGCGTGACGAATCATAGCGGG	129
CTTCTGTAAATTTGTCACGAGACTTGACGCGCCCCG	938
ATATATACTTTAGCATACGTGTGAATACGCCATATC	133
CTTCTGTAAATTTGGTTCGTGGGTGGACGCGCCCCG	87.4
TGCGCAACAACTTTTCACGTGACTTTATGTCTAGAA	7590
CTTCTGTAAATTTATCACGTGTTTTGACGCGCCCCG	4520
CAAATCGAAACCACCATCGTGTCCTTCCTTGGGAAC	71
GTCTTGTCTCATTGTTGAGTGGGTGTCCCCACTTCA	70.8

A few entries again (series 2):
Strand	E-score
ATAACTCG	0.004
CATAGTAA	-0.131
ATGGGCTC	-0.144
GAATCGTA	0.00266
GTTAACTA	0.188
GGCGAGCC	-0.028
CTACCCGC	0.247
TCGAGACA	-0.135
GGCTTGTA	-0.0821
